Measurements gathered from unrelated publications.
Protocols differ between the studies behind these lines. Several values in a cell are separate wells, animals, samples, runs or records. ± gives the spread as reported.

| Structure (SMILES) | tested on | assay | system | setting | scale | quantity | value |
| --- | --- | --- | --- | --- | --- | --- | --- |
| Clc1ccc(C(c2c[nH]c3ccccc23)c2c[nH]c3ccccc23)cc1 | COS-7 |  |  | 10 µM, 24 h, 0.1% DMSO, unit not given | relative to: vehicle control | necrotic cells | 2.67 ± 0.2 |
| CCN(c1cc(-c2ccc(CN3CCOCC3)cc2)cc(C(=O)NCc2c(C)cc(C)[nH]c2=O)c1C)C1CCOCC1 |  |  | NOD/SCID mouse xenograft, blood | 100 mg/kg, 12 d, with: bortezomib 1 and co-treatment |  | hemoglobin | 153 g/L and 150 g/L and 148 g/L and 160 g/L and 154 g/L |
| Cc1c(-c2ccc(N3CCc4cccc(C(=O)Nc5nc6ccccc6s5)c4C3)nc2C(=O)O)cnn1CC12CC3(C)CC(C)(C1)CC(OCCNCC[C@H](O)CO)(C3)C2 |  |  | beagle dog, anaesthetised | intravenous infusion, 0.1 mg/kg/min, 90 min | relative to: baseline | mean arterial pressure change | -1 mmHg |
| C[C@@H](N)C1CCN(S(=O)(=O)c2cccc3cnccc23)CC1 |  | measured: Rash | healthy volunteers | 150 mg, fasted |  | TEAE incidence | 0% |
| CCc1cc(C(=O)NC)c2nccc(N3CCc4c(cc(Cn5ccnc5)cc4-c4cn(C)nc4C(F)(F)F)C3=O)c2c1 |  |  | Sprague Dawley rat | oral, 50 mg/kg once daily, 7 days |  | lung weight | 1.32 ± 0.069 g |
| CC1CCNc2c(C(=O)NC/C=C/S(C)(=O)=O)cccc21 (stereo not drawn) |  |  | uninfected mouse, serum | 300 mg/kg |  | serum AST | 107 U/L and 70 U/L |
| CCOC(=O)c1cc(O)c(O)c(O)c1 |  |  | human plasma | median |  | plasma concentration | 0.0044 µM |
| COc1cc2c(c(O)c1OC)C(=O)c1c(cc(C)c(O[C@@H]3O[C@H](CO)[C@@H](O)[C@H](O)[C@H]3O)c1OC)C2=O | HepaRG co-cultured with HK-2 | MTT |  | 266.67 µM, 48 h | relative to: untreated control | cell viability | 31.1 ± 8.87% |
| O=C(COc1ccc(Cl)cc1)NC12CC(c3nnc([C@H]4C[C@@H](OC(F)(F)F)C4)o3)(C1)C2 |  |  | human both sexes | oral, 100 mg once daily, 14 days |  | participants with procedural pain | 14.3% |
| C[C@@H](c1ncncc1F)[C@](O)(Cn1cncn1)c1ccc(F)cc1F |  |  | human | oral, 200 mg, drug interaction trial |  | drug-related TEAE | 9.1% |
| COc1ccc2c3c([nH]c2c1)[C@H](CC(C)C)N1C(=O)[C@H](CC(=O)NC(C)C)NC(=O)[C@@H]1C3 |  |  | wild-type mouse, male, serum | oral, 100 mg/kg, 4 h |  | serum concentration | 13.1 µM and 10.3 µM and 10.9 µM |
| O=C(O)CCC(=O)O.[2H]C([2H])([2H])Oc1cc(C)c2[nH]ccc2c1CN1CC[C@@H](C2CC2)C[C@H]1c1ccc(C(=O)O)cc1 |  | multiple ascending dose | healthy Chinese subjects | 300 mg once daily |  | subjects with TEAE Anemia | 12.5% |
| Cc1cccc(CNC(=O)c2cn(CCNC(=O)c3ccccc3S)c3cc4c(cc3c2=O)OC(F)(F)O4)n1 |  |  | Sprague-Dawley rat, male, whole blood | intramuscular, 3 mg/kg of parent drug |  | Tmax | 23.4 ± 18.6 min |
| O=c1cc(-c2ccccc2)oc2ccccc12 |  | cyclic voltammetry | DMSO, 0.1 M Bu4NPF6 | 25 °C |  | half-wave potential | -1.59 V vs Ag/AgCl |
| FC(F)(F)c1ccc(CNc2ccc(Cc3c[nH]c4ncc(Cl)cc34)cn2)cn1 |  | measured: alanine aminotransferase increased | patients with TGCT | oral, 1000 mg/day, grade 3 or higher |  | patients with treatment-related adverse event | 10% |
| CCn1cc(C(=O)O)c(=O)c2cc(F)c(N3CCNCC3)cc21 |  | starch gel membrane permeability | Gram-negative envelope surrogate | 200 µM, 90 min, pH 7.4 |  | amount permeated | 4.79 nmol |
| C[C@@H](Oc1ccc(S(C)(=O)=O)cc1C(=O)N1C[C@@H]2C[C@]2(c2cc(C(F)(F)F)on2)C1)C(F)(F)F |  |  | healthy human volunteers | oral, 10 mg single dose, with: fed state | relative to: fasted state | exposure increase | < 20% |
| CCOC(=O)[C@@]12C[C@@H]1[C@@H](n1ccc3c(NC)nc(C#Cc4ccc(Cl)s4)nc31)[C@H](O)[C@@H]2O |  |  | Sprague-Dawley rat, male, plasma | oral, 10 mg/kg |  | AUC extrapolated share | 3.4% |
| COc1cc2c(c(OC)c1OC)C(=O)c1c(cc(C)c(O)c1OC)C2=O | HepaRG co-cultured with HK-2 | MTT |  | 133.33 µM, 48 h | relative to: untreated control | cell viability | 69.5 ± 6.7% |
| COc1cccc(-c2n[nH]c(SCc3ccccn3)n2)c1OC |  |  | Sprague-Dawley rat, plasma | oral, 30 mg/kg | relative to: female over male | AUC(0-last) ratio | 0.92 |
| C[C@@H](c1nc(-c2ccc(C#N)cc2)cs1)[C@](O)(Cn1cncn1)c1cc(F)ccc1F |  | measured: infections and infestations (SOC) | humans | oral, dose not given, with: ketoconazole |  | subjects with TEAEs | 0% |
| Cn1c(=O)c2c(ncn2C)n(C)c1=O |  |  | human, both sexes, plasma |  |  | samples above LOQ | 100% |
| Cc1c2oc3c(C)ccc(C(=O)N[C@@H]4C(=O)N[C@H](C(C)C)C(=O)N5CCC[C@H]5C(=O)N(C)CC(=O)N(C)[C@@H](C(C)C)C(=O)O[C@@H]4C)c3nc-2c(C(=O)N[C@@H]2C(=O)N[C@H](C(C)C)C(=O)N3CCC[C@H]3C(=O)N(C)CC(=O)N(C)[C@@H](C(C)C)C(=O)O[C@@H]2C)c(N)c1=O |  | LC-MS | children with cancer, plasma | dose not given, 22 h |  | minimum plasma concentration | 1.1 µg/L |
| CCN1CCN(c2cc(N3CCN(CC)CC3)nc(NCCNc3ccnc4cc(Cl)ccc34)n2)CC1 | COS-7 | WST-8 |  | 20 µM, 24 h, 0.1% DMSO, unit not given | relative to: vehicle control | metabolic activity | 0.75 ± 0.23 |

A few entries again:
| Structure (SMILES) | tested on | assay | system | setting | scale | quantity | value |
| --- | --- | --- | --- | --- | --- | --- | --- |
| CCn1cc(C(=O)O)c(=O)c2cc(F)c(N3CCNCC3)cc21 |  | starch gel membrane permeability | Gram-negative envelope surrogate | 200 µM, 90 min, pH 7.4 |  | amount permeated | 4.79 nmol |
| CCc1cc(C(=O)NC)c2nccc(N3CCc4c(cc(Cn5ccnc5)cc4-c4cn(C)nc4C(F)(F)F)C3=O)c2c1 |  |  | Sprague Dawley rat | oral, 50 mg/kg once daily, 7 days |  | lung weight | 1.32 ± 0.069 g |
